Measurements of several laboratories.
Lines come from different studies, so protocols differ.
Organism: Escherichia coli

CCCCCCSCC1OC(OC2C(N)CC(N)C(OC3OC(CN)C(O)CC3N)C2O)C(O)C(N)C1O (centres unmarked) — MIC (BL21(DE3) AAC(3)-IV): > 150 µg/mL
O=C(NCCNCCO)c1cn(Cc2ccccc2)c2cc(Cl)c(OCc3ccc(Cl)cc3)cc2c1=O — MIC (ATCC 25922; ≥80% growth inhibition): < 0.25 µg/mL
CC[C@H](C)[C@H](NC(=O)[C@H](CCCN)NC(=O)[C@H](CC(N)=O)NC(=O)[C@H](CC(C)C)NC(=O)[C@H](Cc1ccccc1)NC(=O)[C@H](CCCN)NC(=O)[C@H](CCCCNC(=N)N)NC(=O)[C@H](CC(C)C)NC(=O)[C@H](CC(C)C)NC(=O)[C@H](CCCN)NC(=O)[C@H](CCCCNC(=N)N)NC(=O)[C@H](CC(C)C)NC(=O)CNC(C)=O)C(=O)N[C@@H](CCCN)C(=O)N[C@@H](CCCCNC(=N)N)C(N)=O — MIC (broth microdilution; ATCC 25922): 3.12 µM
CC1(C)OC2OC(C(CCO)NC(=O)Nc3cccc(NC(=O)NC(CCO)C4OC5OC(C)(C)OC5C4OCc4ccccc4)c3)C(OCc3ccccc3)C2O1 (centres unmarked) — MIC (microbial growth, broth dilution; 20 h): 76 µg/mL
CCCCCCCCCCCCC(=O)O.O=C1CCCC2C3CCCN4CCCC(CN12)C34 (centres unmarked) — MIC (bacterial growth, broth dilution; ATCC 25922): inactive
CC[C@@H](C)[C@H]1NC(=O)[C@H]([C@@H](C)CC)NC(=O)[C@@H](CCCN)NC(=O)[C@@H](NC(=O)[C@@H](NC(=O)[C@@H](CCC(=O)O)NC(=O)[C@H](CC(C)C)NC(=O)[C@@H]2CSC([C@@H](N)[C@@H](C)CC)=N2)[C@@H](C)CC)CCCCNC(=O)[C@H](CC(N)=O)NC(=O)[C@@H](CC(=O)O)NC(=O)[C@H](Cc2c[nH]cn2)NC1=O — MIC (broth microdilution; ATCC 25922, LB medium; 18 h, 37 °C, together with: ZnSO4 0.3 mM): > 64 µg/mL
OB(O)c1cnn(-c2cccc(Cl)c2)c1 — MIC (bacterial growth; TEM-3 ESBL clinical isolate; cefotaxime alone): 2 µg/mL
CC[C@H](C)[C@H](NC(=O)[C@@H](Cc1ccccc1)NC)C(=O)OC[C@H](N)C(=O)N[C@H](CCCNC(=N)N)C(=O)N[C@@H](C(=O)N[C@H](C(=O)OC[C@H](N)C(=O)N[C@H]1C(=O)N[C@@H](C)C(=O)N[C@@H](CC(C)C)C(=O)N[C@@H]([C@@H](C)CC)C(=O)O[C@H]1C)[C@@H](C)CC)[C@@H](C)CC — MIC (broth microdilution; ATCC 10798, Mueller-Hinton broth; 16 h, 37 °C): > 8 µg/mL
C#CCON=C1C(C)C(c2ccc(Br)cc2)OC(c2ccc(Br)cc2)C1C (centres unmarked) — MIC (microbial growth, broth dilution; MTCC443; 24 h): 12.5 µg/mL
CCCCCCCCCCCC[S+]([O-])CC1OC(OC2C(N)CC(N)C(OC3OC(CN)C(O)CC3N)C2O)C(O)C(N)C1O (mixture of isomers) — MIC (BL21(DE3) AAC(3)-IV): > 150 µg/mL
CC(C)[C@H](NC(=O)[C@H]1NC(=O)[C@H](CO)NC(=O)[C@H](CC(N)=O)NC(=O)[C@@H](N)Cc2c[nH]c3cc(ccc23)C1C(N)=O)C(=O)N[C@H]1Cc2cn(cn2)C(c2ccc(O)cc2)[C@@H](C(=O)N[C@@H](CCCNC(=N)N)C(=O)N[C@@H](Cc2ccccc2)C(=O)O)NC(=O)[C@H](CO)NC1=O (some centres unmarked) — MIC (ATCC 25922): 8 µg/mL
Cc1cc(N)c2cc(NC(=O)c3ccc4c(-c5cccc(O)c5)cccc4c3)ccc2n1 — MIC (hyperporinated wild type): > 200 µM
CC[C@H](C)[C@H](NC(=O)[C@H](C)NC(=O)[C@@H]1CCCN1C(=O)[C@H](CC(C)C)NC(=O)[C@H](Cc1ccccc1)NC(=O)[C@H](CCCCN)NC(=O)[C@H](CCSC)NC(=O)[C@H](C)NC(=O)[C@H](CCSC)NC(=O)[C@H](CCCCN)NC(=O)[C@H](C)NC(=O)[C@@H](NC(=O)[C@@H](NC(=O)CNC(=O)[C@H](Cc1ccccc1)NC(=O)[C@@H](N)Cc1ccccc1)C(C)C)[C@@H](C)CC)C(=O)N[C@@H](Cc1ccccc1)C(=O)N[C@@H](CCCCN)C(=O)N[C@@H](CCC(N)=O)C(=O)N[C@H](C(=O)N[C@@H](CCC(N)=O)C(=O)N[C@@H](CCCCN)C(=O)N[C@@H](CCCCN)C(=O)N[C@@H](CCCNC(=N)N)C(=O)N[C@@H](CCCCN)C(N)=O)[C@@H](C)CC — MIC (broth microdilution; ATCC 35218): 6.25 µM
CCCCCCCCCCCCCCCCCCSCC1OC(OC2C(N)CC(N)C(OC3OC(CN)C(O)CC3N)C2O)C(O)C(N)C1O (centres unmarked) — MIC (BL21(DE3) AAC(3)-IV): > 150 µg/mL
CCCO[C@H]1[C@H](O)[C@@H](N)[C@@H](O[C@H]2[C@H](O[C@@H]3O[C@H](CO)[C@@H](O[C@H]4O[C@@H](CN)[C@@H](O)[C@H](O)[C@H]4N)[C@H]3O)[C@@H](O)[C@H](N)C[C@@H]2N)O[C@@H]1CO — MIC (broth microdilution; clinical isolate AG 002): 16 to 32 µg/mL
CC(C)C[C@@H]1NC(=O)[C@H](C)NC(=O)[C@H](NC(=O)[C@H](CO)NC(=O)[C@@H](CCCCN)NC(=O)[C@@H](CC(C)C)NC(=O)[C@H](C)N)[C@H](C(N)=O)OC(=O)[C@H](CC(C)C)NC1=O — MIC (ATCC 10798; TFA salt): > 32 µg/mL
CC[C@H](C)[C@@H]1NC(=O)[C@@H]2CSSC[C@@H]3NC(=O)[C@H](C(C)C)NC(=O)CNC(=O)CNC(=O)[C@H](CCCNC(=N)N)NC(=O)[C@H](CCCNC(=N)N)NC(=O)CNC(=O)[C@H](C(C)C)NC(=O)[C@@H]4CSSC[C@H](NC(=O)[C@H](CC(C)C)NC(=O)[C@H](CCCNC(=N)N)NC(=O)CNC(=O)CNC(=O)[C@H](CO)NC(=O)CNC(=O)[C@H](CO)NC(=O)CNC(=O)[C@@H]5CSSC[C@H](NC(=O)[C@H](CC(=O)O)NC(=O)[C@H](CO)NC(=O)[C@H](CC(=O)O)NC(=O)[C@H](CCCNC(=N)N)NC(=O)[C@H](CCCNC(=N)N)NC(=O)[C@H](CSSC[C@H](NC1=O)C(=O)N[C@@H](CCCNC(=N)N)C(=O)NCC(=O)N[C@@H](CC(N)=O)C(=O)NCC(=O)N[C@@H](Cc1ccc(O)cc1)C(=O)N5)NC(=O)[C@H](CCCNC(=N)N)NC(=O)[C@H](CCC(N)=O)NC(=O)[C@H](CC(C)C)NC(=O)[C@H]([C@@H](C)CC)NC(=O)[C@H](CCCCN)NC(=O)[C@@H]1CCCN1C3=O)C(=O)N1CCC[C@H]1C(=O)NCC(=O)N[C@@H](C)C(=O)N2)C(=O)N[C@@H](Cc1ccc(O)cc1)C(=O)N[C@H]1CSSC[C@H](NC(=O)[C@H](Cc2ccccc2)NC(=O)[C@H](CCCNC(=N)N)NC(=O)[C@H](CCCNC(=N)N)NC(=O)[C@H](CCCNC(=N)N)NC1=O)C(=O)N[C@@H](C(C)C)C(=O)N4 — MIC (K12, CAMHB): 0.8 µM
CC(C)C[C@H](NC(=O)[C@H](CCCCN)NC(=O)[C@H](CCCCNC(=O)[C@H](CC(C)C)NC(=O)[C@H](CCCCN)NC(=O)[C@H](CCCCNC(=O)[C@H](CC(C)C)NC(=O)[C@H](CCCCN)NC(=O)[C@H](CCCCNC(=O)[C@H](CC(C)C)NC(=O)[C@@H](N)CCCCN)NC(=O)[C@H](CC(C)C)NC(=O)[C@@H](N)CCCCN)NC(=O)[C@H](CC(C)C)NC(=O)[C@H](CCCCN)NC(=O)[C@H](CCCCNC(=O)[C@H](CC(C)C)NC(=O)[C@@H](N)CCCCN)NC(=O)[C@H](CC(C)C)NC(=O)[C@@H](N)CCCCN)NC(=O)[C@H](CC(C)C)NC(=O)[C@H](CCCCN)NC(=O)[C@H](CCCCNC(=O)[C@H](CC(C)C)NC(=O)[C@H](CCCCN)NC(=O)[C@H](CCCCNC(=O)[C@H](CC(C)C)NC(=O)[C@@H](N)CCCCN)NC(=O)[C@H](CC(C)C)NC(=O)[C@@H](N)CCCCN)NC(=O)[C@H](CC(C)C)NC(=O)[C@H](CCCCN)NC(=O)[C@H](CCCCNC(=O)[C@H](CC(C)C)NC(=O)[C@@H](N)CCCCN)NC(=O)[C@H](CC(C)C)NC(=O)[C@@H](N)CCCCN)C(N)=O — MIC (broth microdilution; W3110; 37 °C): 1 µg/mL
Cc1c2oc3c(C)ccc(C(=O)N[C@@H]4C(=O)N[C@H](C(C)C)C(=O)N5[C@@H](C)CC[C@H]5C(=O)N(C)CC(=O)N(C)[C@@H](C(C)C)C(=O)O[C@@H]4C)c3nc-2c(C(=O)N[C@@H]2C(=O)N[C@H](C(C)C)C(=O)N3CC(=O)C[C@H]3C(=O)N(C)CC(=O)N(C)[C@@H](C)C(=O)O[C@@H]2C)c(N)c1=O — MIC (broth microdilution; ATCC 12435; 16 to 48 h): > 9.57 µg/mL
CO[C@@H](C(N)=O)[C@H](NC(=O)c1ccc(NC(=O)c2ccc([N+](=O)[O-])cc2)cc1)C(=O)Nc1ccc(C(=O)Nc2ccc(C(=O)Nc3ccc(C(=O)O)cc3)c(O)c2OC(C)C)cc1 — MIC (K12 ΔtolC): 0.125 µg/mL
CCn1cc(C(=O)NCCCCCC(=O)N[C@@H](CCCNC(=N)N)C(=O)N[C@@H](CCCNC(=N)N)C(=O)N[C@@H](Cc2c[nH]c3ccccc23)C(=O)N[C@@H](CCC(N)=O)C(=O)N[C@@H](Cc2c[nH]c3ccccc23)C(=O)N[C@@H](CCCNC(=N)N)C(N)=O)c(=O)c2cc3c(cc21)OCO3 — MIC (broth microdilution; ATCC 25922; 24 h, 37 °C): 75 µM
CCCCCCCCCCCCCCCC(=O)N[C@@H](CCCCN)C(=O)N[C@@H](CCCCN)C(=O)N(CCCCN)CC(=O)N[C@@H](CCCCN)C(=O)N[C@@H](CCCCN)C(N)=O — MIC (broth microdilution; K12, water pH 7; 18 h, 37 °C): 16 µg/mL
CC(C)C[C@@H]1NC(=O)[C@@H](Cc2ccccc2)NC(=O)[C@H](CCN)NC(=O)[C@@H](NC(=O)[C@H](CN)NC(=O)[C@@H](NC(=O)CC(CN)Cc2ccccc2)[C@@H](C)O)CCNC(=O)[C@H]([C@@H](C)O)NC(=O)[C@H](CCN)NC(=O)[C@H](CCN)NC1=O (some centres unmarked) — MIC (broth microdilution; IHMA 558090 reduced polymyxin B susceptibility, cation-adjusted Mueller-Hinton broth): 8 µg/mL
CCCCCCCCCCCCCCC(=O)N[C@@H](CCCCN)C(=O)N[C@@H](CCCCN)C(=O)N[C@@H](CCCCN)C(=O)N[C@@H](CCCCN)C(=O)N[C@@H](CCCCN)C(N)=O — MIC (broth microdilution; K12, water pH 7; 18 h, 37 °C): 64 µg/mL
N#CC1COC(=O)N1/N=C/c1ccc([N+](=O)[O-])o1 (centres unmarked) — MIC (microbial growth, broth dilution; ATCC25922; 18 h): 12.5 µg/mL
CC[C@H](C)[C@H](NC(=O)[C@H](CCCNC(=N)N)NC(=O)[C@H](CC(C)C)NC(=O)[C@H](CC(C)C)NC(=O)[C@H](C)NC(=O)[C@@H](NC(=O)[C@H](CCCCN)NC(=O)[C@H](CCCCN)NC(=O)[C@H](C)NC(=O)[C@@H](NC(=O)[C@H](Cc1c[nH]c2ccccc12)NC(=O)[C@@H](NC(=O)[C@H](Cc1ccc(O)cc1)NC(=O)[C@H](Cc1ccccc1)NC(=O)[C@H](CC(=O)O)NC(=O)[C@H](Cc1ccc(O)cc1)NC(=O)[C@@H](NC(=O)[C@H](CC(C)C)NC(=O)[C@H](CO)NC(=O)[C@H](C)NC(=O)[C@H](C)NC(=O)[C@@H](NC(=O)[C@@H](NC(=O)[C@@H](N)CC(C)C)[C@@H](C)CC)C(C)C)C(C)C)[C@@H](C)O)[C@@H](C)CC)C(C)C)C(=O)N[C@@H](C)C(=O)N[C@@H](CCCCN)C(=O)N[C@@H](CCCCN)C(=O)N[C@H](C(=O)N[C@@H](CC(C)C)C(=O)N[C@@H](Cc1ccc(O)cc1)C(=O)N[C@@H](CC(C)C)C(=O)N[C@@H](C)C(=O)N[C@@H](CCCNC(=N)N)C(=O)N[C@@H](CC(N)=O)C(=O)N[C@@H](C)C(=O)O)C(C)C — MIC (ATCC 25922; 24 h): 1 µM
